# Published values collected from several papers.
# Each line is one published result; not all experiments were run side by side. Numbers after ± are the reported error.
Compound,system,setting,tissue uptake [%ID/g]
CCCC[C@H](NC(=O)CNC(=O)CNC(=O)CN1CCN(CC(=O)O)CCN(CC(=O)O)CCN(CC(=O)O)CC1)C(=O)N[C@H]1CC(=O)NCCCC[C@@H](C(N)=O)NC(=O)[C@H](Cc2c[nH]c3ccccc23)NC(=O)[C@H](CCCNC(=N)N)NC(=O)[C@@H](Cc2ccccc2)NC(=O)[C@H](Cc2c[nH]cn2)NC1=O [lead-203 labelled],"C57 mouse, skin","intravenous, 0.056 MBq, 4 h",0.22 ± 0.17
CCCC[C@H](NC(=O)CNC(=O)CNC(=O)CN1CCN(CC(=O)O)CCN(CC(=O)O)CC1)C(=O)N[C@H]1CC(=O)NCCCC[C@@H](C(N)=O)NC(=O)[C@H](Cc2c[nH]c3ccccc23)NC(=O)[C@H](CCCNC(=N)N)NC(=O)[C@@H](Cc2ccccc2)NC(=O)[C@H](Cc2c[nH]cn2)NC1=O [copper-64 labelled],"female C57 mouse, B16/F1 melanoma, blood","intravenous, 0.037 MBq, 24 h",0.1 ± 0.04
CC(C)[C@H](NC(=O)[C@@H]1CCCN1C(=O)[C@H](CCCNC(=N)N)NC(=O)[C@H](CS)NC(=O)[C@H](Cc1c[nH]c2ccccc12)NC(=O)[C@H](CCCNC(=N)N)NC(=O)[C@@H](Cc1ccccc1)NC(=O)[C@H](Cc1c[nH]cn1)NC(=O)[C@H](CCC(=O)O)NC(=O)[C@H](CS)NC(=O)[C@H](CS)NC(=O)CNC(=O)[C@@H]1CC(=O)N[C@@H](CCCNC(=N)N)C(=O)NCC(=O)N[C@@H](CC(=O)O)C(=O)N[C@H](Cc2ccc(O)cc2)C(=O)N1)C(N)=O [technetium-99m labelled],"C57 mouse, female, B16/F1 melanoma, skin","intravenous, 0.037 MBq, 0.5 h",6.39 ± 0.84
CN(C)c1ccc(-c2nc3ccc(OCCCCCN4CCN5CCN(CC4)CC(=O)[O][Al]([18F])[O]C(=O)C5)cc3s2)cc1,"ICR mouse, muscle","intravenous, 60 min",0.81 ± 0.76
CCCC[C@H](NC(=O)CNC(=O)CNC(=O)CN1CCN(CC(=O)O)CCN(CC(=O)O)CCN(CC(=O)O)CC1)C(=O)N[C@H]1CC(=O)NCCCC[C@@H](C(N)=O)NC(=O)[C@H](Cc2c[nH]c3ccccc23)NC(=O)[C@H](CCCNC(=N)N)NC(=O)[C@@H](Cc2ccccc2)NC(=O)[C@H](Cc2c[nH]cn2)NC1=O [copper-64 labelled],"female C57 mouse, B16/F1 melanoma, bone","intravenous, 0.037 MBq, 24 h",0.42 ± 0.11
O=C([O-])CN1CCN(CC(=O)[O-])CCN(CC(=O)NCCc2ccc3c(c2)C2C=CCC2C(c2cc4c(cc2Br)OCO4)N3)CCN(CC(=O)[O-])CC1.[111In+3] (centres unmarked),"mouse, Hec50 endometrial tumour, brain",2 h post injection,0.06 ± 0.01
CC(C)[C@H](NC(=O)[C@@H]1CCCN1C(=O)[C@H](CCCNC(=N)N)NC(=O)[C@H](CS)NC(=O)[C@H](Cc1c[nH]c2ccccc12)NC(=O)[C@H](CCCNC(=N)N)NC(=O)[C@@H](Cc1ccccc1)NC(=O)[C@H](Cc1c[nH]cn1)NC(=O)[C@H](CCC(=O)O)NC(=O)[C@H](CS)NC(=O)[C@H](CS)NC(=O)[C@@H]1CC(=O)N[C@@H](CCCNC(=N)N)C(=O)NCC(=O)N[C@@H](CC(=O)O)C(=O)N[C@H](Cc2ccc(O)cc2)C(=O)N1)C(N)=O [technetium-99m labelled],"C57 mouse, female, B16/F1 melanoma, bone","intravenous, 0.037 MBq, 24 h",0.36 ± 0.27
CN1C(=O)[C@@H](Cc2ccc(O)c(I)c2)NC(=O)CNC(=O)[C@H](Cc2ccc3ccccc3c2)NC(=O)[C@H](CCCNC(=N)N)NC(=O)[C@H]1CCCNC(=O)c1ccc(CNC(=O)CN2CCN(CC(=O)O)CCN(CC(=O)O)CCN(CC(=O)O)CC2)cc1 [lutetium-177 labelled],"female CB-17 SCID mouse, Daudi xenograft, liver","intravenous, 6 h, CXCR4 blocking, together with: AMD3100 2 mg/kg coinjected",5.85 ± 0.24

# A few entries again:
Compound,system,setting,tissue uptake [%ID/g]
CCCC[C@H](NC(=O)CNC(=O)CNC(=O)CN1CCN(CC(=O)O)CCN(CC(=O)O)CCN(CC(=O)O)CC1)C(=O)N[C@H]1CC(=O)NCCCC[C@@H](C(N)=O)NC(=O)[C@H](Cc2c[nH]c3ccccc23)NC(=O)[C@H](CCCNC(=N)N)NC(=O)[C@@H](Cc2ccccc2)NC(=O)[C@H](Cc2c[nH]cn2)NC1=O [lead-203 labelled],"C57 mouse, skin","intravenous, 0.056 MBq, 4 h",0.22 ± 0.17
